Assay results pooled from the literature.
Protocols differ between the studies behind these lines. ± gives the spread as reported.
NTSR1: Neurotensin receptor type 1 (NTSR1, Homo sapiens, UniProt P30989)
Sequence of UniProt P30989 (whole entry, looked up): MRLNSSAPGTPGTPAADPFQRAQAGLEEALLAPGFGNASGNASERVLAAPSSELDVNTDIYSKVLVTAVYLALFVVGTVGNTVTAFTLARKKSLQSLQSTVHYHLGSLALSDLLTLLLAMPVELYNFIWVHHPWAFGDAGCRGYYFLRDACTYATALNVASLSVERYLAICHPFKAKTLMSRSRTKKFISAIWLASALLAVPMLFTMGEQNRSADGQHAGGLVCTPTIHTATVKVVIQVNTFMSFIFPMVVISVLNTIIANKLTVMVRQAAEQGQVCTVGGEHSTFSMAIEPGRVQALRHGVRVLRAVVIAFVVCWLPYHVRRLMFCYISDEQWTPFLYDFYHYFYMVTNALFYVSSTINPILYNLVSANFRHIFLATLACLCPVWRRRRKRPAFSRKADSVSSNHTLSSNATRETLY
Uncharacterized protein: Uncharacterized protein (Trypanosoma brucei brucei, UniProt Q386Q8)
CHRM3: Muscarinic acetylcholine receptor M3 (CHRM3, Homo sapiens, UniProt P20309)
Sequence of UniProt P20309 (whole entry, looked up): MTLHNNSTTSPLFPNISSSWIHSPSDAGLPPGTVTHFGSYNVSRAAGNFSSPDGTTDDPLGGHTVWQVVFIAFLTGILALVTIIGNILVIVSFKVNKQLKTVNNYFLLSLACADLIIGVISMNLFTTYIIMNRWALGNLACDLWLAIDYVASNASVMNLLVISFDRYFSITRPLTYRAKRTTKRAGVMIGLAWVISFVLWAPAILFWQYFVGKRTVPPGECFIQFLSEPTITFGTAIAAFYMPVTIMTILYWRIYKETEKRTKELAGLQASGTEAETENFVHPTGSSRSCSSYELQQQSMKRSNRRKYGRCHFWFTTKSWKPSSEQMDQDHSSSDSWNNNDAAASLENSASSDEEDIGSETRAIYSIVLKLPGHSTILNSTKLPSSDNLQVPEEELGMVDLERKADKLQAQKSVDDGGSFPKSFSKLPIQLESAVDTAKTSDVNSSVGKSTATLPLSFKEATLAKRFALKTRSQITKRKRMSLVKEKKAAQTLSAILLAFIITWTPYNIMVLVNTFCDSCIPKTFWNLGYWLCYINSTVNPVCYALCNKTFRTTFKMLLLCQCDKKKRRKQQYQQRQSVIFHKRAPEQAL
PDE4D: 3',5'-cyclic-AMP phosphodiesterase 4D (PDE4D, Homo sapiens, UniProt Q08499)
ppa: Inorganic pyrophosphatase (ppa, Escherichia coli, UniProt P0A7A9)
Sequence of UniProt P0A7A9 (whole entry, looked up): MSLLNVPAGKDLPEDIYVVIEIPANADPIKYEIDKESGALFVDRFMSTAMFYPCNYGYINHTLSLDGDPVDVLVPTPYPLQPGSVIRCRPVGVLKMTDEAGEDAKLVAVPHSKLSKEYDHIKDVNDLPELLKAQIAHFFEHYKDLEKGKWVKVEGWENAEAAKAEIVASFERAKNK
Gria1: Glutamate receptor 1 (Gria1, Rattus norvegicus, UniProt P19490)
PIK3CD: Phosphatidylinositol 4,5-bisphosphate 3-kinase catalytic subunit delta isoform (PIK3CD, Homo sapiens, UniProt O00329)
Sequence of UniProt O00329 (whole entry, looked up): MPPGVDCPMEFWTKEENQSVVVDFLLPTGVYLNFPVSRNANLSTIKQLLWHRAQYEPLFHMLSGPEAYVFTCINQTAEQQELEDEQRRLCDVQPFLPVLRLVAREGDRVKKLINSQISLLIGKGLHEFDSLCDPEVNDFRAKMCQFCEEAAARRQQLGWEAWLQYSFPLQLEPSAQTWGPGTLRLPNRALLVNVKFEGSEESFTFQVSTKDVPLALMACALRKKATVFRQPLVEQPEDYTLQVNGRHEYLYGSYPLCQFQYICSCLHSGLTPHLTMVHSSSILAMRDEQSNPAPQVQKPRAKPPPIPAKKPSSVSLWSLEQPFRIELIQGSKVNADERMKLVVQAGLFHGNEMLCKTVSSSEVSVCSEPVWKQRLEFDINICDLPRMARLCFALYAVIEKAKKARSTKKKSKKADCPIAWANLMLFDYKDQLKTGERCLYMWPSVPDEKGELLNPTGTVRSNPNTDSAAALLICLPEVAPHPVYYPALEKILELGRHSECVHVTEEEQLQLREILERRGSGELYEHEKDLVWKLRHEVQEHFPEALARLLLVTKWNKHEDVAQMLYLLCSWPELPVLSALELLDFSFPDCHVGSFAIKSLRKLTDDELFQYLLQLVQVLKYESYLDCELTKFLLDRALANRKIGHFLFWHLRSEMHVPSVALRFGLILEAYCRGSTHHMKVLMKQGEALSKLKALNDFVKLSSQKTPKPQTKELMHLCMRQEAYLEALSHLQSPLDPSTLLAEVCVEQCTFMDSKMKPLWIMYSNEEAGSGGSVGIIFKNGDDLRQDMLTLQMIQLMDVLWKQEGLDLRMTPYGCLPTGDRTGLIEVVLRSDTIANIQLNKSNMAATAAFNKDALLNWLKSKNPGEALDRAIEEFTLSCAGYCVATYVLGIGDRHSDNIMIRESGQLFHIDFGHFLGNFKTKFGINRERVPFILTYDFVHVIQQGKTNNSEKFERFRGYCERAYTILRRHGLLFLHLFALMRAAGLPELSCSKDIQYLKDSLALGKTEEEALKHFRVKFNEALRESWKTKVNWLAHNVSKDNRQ
NNMT: Nicotinamide N-methyltransferase (NNMT, Homo sapiens, UniProt P40261)
Sequence of UniProt P40261 (whole entry, looked up): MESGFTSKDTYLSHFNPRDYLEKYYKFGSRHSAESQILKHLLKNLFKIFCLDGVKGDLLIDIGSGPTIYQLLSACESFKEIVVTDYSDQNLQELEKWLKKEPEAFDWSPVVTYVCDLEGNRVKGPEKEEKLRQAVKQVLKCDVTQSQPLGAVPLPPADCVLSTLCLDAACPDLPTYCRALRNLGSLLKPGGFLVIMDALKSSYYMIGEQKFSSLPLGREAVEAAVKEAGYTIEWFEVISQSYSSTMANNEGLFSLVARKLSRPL
CYP2C19: Cytochrome P450 2C19 (CYP2C19, Homo sapiens, UniProt P33261)
TDP1: Tyrosyl-DNA phosphodiesterase 1 (TDP1, Homo sapiens, UniProt Q9NUW8)
DNA dC->dU-editing enzyme APOBEC-3B C-terminal domain: DNA dC->dU-editing enzyme APOBEC-3B, C-terminal domain (Homo sapiens, UniProt Q9UH17)
Sequence of UniProt Q9UH17 (whole entry, looked up): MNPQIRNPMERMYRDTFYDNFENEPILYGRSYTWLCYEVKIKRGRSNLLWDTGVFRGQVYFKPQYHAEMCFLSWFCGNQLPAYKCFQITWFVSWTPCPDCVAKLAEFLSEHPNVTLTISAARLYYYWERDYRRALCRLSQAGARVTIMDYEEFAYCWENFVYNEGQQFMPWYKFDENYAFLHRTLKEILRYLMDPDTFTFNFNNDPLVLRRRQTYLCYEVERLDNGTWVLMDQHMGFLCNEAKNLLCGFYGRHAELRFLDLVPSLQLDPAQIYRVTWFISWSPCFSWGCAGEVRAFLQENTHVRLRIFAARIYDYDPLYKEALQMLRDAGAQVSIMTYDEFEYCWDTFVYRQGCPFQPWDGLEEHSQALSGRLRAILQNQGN
SLC7A5: Large neutral amino acids transporter small subunit 1 (SLC7A5, Homo sapiens, UniProt Q01650)
Sequence of UniProt Q01650 (whole entry, looked up): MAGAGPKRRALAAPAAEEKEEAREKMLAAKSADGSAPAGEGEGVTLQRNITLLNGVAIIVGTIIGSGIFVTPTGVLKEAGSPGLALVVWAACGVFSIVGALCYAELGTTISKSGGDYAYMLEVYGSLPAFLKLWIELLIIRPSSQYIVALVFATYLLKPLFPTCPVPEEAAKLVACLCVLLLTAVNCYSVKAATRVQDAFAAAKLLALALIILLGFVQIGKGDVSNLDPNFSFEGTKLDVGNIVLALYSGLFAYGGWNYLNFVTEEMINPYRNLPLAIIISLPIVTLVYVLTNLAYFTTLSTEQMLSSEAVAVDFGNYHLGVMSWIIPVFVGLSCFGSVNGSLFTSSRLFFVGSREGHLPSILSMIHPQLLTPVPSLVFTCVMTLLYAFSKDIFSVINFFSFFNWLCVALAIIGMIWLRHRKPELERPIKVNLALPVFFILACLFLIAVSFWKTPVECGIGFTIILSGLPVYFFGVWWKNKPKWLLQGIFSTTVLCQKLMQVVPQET
glpG: Rhomboid protease GlpG (glpG, Escherichia coli, UniProt P09391)
ADRB2: Beta-2 adrenergic receptor (ADRB2, Homo sapiens, UniProt P07550)
Sequence of UniProt P07550 (whole entry, unmodified, looked up): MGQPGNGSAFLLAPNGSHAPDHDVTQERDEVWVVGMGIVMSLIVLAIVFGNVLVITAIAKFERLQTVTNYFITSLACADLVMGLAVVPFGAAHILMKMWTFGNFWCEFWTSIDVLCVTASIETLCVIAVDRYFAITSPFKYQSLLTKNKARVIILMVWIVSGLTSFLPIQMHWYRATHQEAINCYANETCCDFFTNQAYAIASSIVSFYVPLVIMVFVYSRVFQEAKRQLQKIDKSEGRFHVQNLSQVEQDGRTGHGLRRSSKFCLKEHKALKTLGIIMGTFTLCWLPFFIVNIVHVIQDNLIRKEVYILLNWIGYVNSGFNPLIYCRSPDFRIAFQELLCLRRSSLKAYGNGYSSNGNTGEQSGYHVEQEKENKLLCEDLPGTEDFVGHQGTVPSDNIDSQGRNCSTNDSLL
OfChi-h: Chitinase (OfChi-h, Ostrinia furnacalis, UniProt Q4AE59)
JAK1: Tyrosine-protein kinase JAK1 (JAK1, Homo sapiens, UniProt P23458)
Sequence of UniProt P23458 (whole entry, looked up): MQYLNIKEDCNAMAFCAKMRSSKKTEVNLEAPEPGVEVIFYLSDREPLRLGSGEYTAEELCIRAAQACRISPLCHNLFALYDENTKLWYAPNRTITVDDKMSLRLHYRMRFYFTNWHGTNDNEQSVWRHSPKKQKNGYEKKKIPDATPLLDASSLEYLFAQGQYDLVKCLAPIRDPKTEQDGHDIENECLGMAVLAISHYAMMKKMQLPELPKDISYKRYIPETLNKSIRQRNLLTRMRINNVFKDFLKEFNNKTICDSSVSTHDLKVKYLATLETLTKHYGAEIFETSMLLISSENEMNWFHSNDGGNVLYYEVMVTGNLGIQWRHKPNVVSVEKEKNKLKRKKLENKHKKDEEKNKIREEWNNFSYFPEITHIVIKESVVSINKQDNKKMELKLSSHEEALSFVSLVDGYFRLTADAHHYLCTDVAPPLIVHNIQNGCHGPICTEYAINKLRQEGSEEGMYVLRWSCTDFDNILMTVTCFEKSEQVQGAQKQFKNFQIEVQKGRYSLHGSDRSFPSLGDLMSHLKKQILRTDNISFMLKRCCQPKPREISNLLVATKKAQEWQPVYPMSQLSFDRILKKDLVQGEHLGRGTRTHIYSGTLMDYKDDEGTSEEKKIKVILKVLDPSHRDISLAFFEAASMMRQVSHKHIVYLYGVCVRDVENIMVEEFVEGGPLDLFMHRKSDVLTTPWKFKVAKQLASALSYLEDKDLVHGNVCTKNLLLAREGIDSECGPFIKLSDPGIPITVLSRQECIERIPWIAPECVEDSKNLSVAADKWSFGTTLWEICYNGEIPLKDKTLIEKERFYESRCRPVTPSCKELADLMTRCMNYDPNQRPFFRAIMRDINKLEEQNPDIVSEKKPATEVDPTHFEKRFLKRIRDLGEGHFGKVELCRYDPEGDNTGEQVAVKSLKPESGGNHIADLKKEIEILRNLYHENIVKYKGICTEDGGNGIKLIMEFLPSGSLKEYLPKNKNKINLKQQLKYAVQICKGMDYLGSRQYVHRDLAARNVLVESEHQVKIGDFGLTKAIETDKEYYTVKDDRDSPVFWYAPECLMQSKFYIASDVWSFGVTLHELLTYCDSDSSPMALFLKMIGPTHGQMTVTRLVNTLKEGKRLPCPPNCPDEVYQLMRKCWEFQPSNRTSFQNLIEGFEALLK

COc1ccccc1C1CCN(c2nc(C3(F)CC3)nc3cc(Cl)c(N(C)CCO)cc23)CC1  IC50 (NTSR1; G protein activation, antagonist): 1.28 µM
Cc1ccc2c(c1C)NC(=O)C2(O)CC(=O)c1ccc2c(c1)OCO2 (centres unmarked)  IC50 (Uncharacterized protein; inhibitor, coupled colorimetric; Trypanosoma brucei): 365 µM
O=C(CCNC(=O)CNC(=O)CC(c1ccccc1)(c1ccccc1)c1ccccc1)NC[C@@H]1CCCN(C[C@H]2C[C@H](F)C2)C1  IC50 (CHRM3; ligand displacement, radioligand; cell membranes): 2.1 µM
CC(C)c1ccc(/C=C/C(=O)c2cccc(C(F)(F)F)c2)cc1  IC50 (MAOB (Homo sapiens, UniProt P27338); enzyme activity, inhibitor): 1.41 µM
Oc1ccc(C#Cc2cccc3c2C(c2ccc(O)cc2)(c2ccc(O)cc2)c2cc(O)ccc2-3)cc1  IC50 (PDE4D; enzyme activity, inhibitor): 0.202 µM
CC(=O)C1=C(C)Nc2ccccc2S1  IC50 (ppa; inhibitor, counter-screen, coupling enzyme alone): 56.9 µM
CC(C)NC(=O)c1ccc2nc(-c3ccccc3)cn2c1  IC50 (Protein AF-9, YEATS domain (Homo sapiens, UniProt P42568); YEATS domain binding, inhibitor, HTRF): 17.4 µM
COC(=O)Cc1cc2c(cc1C(=O)c1cccc(I)c1)OCO2  IC50 (Gria1; ion current, patch clamp): 5.9 µM
Cc1nc(Nc2ccc3c(c2)/C(=C/c2ccccc2Cl)C(=O)N3C)c2ccccc2n1  IC50 (PIK3CD; enzyme activity, inhibitor, ADP detection): 0.362 µM
COc1cc2nc(CC3CC3)nc(N3CCN(c4ccccc4OC)CC3)c2cc1OC  IC50 (NTSR1; G protein activation, antagonist, BRET): > 30 µM
CNCc1ccc2c(c1)N(C(=O)OCC(F)(F)F)[C@H](CNC(=N)N)[C@H]2NC(=O)C(=O)Nc1ccc(Cl)c(F)c1  IC50 (env (Human immunodeficiency virus 1, UniProt O40222); HIV-1 infection; Cf2Th-CD4/CCR5 cells; 48 h): 0.14 µM
COc1ccc(NC2(C#N)C(=O)Nc3ccccc32)cc1 (centres unmarked)  IC50 (ppa; inhibitor, counter-screen, coupling enzyme alone): 27.2 µM
COc1ccc(CN2C3(NC(c4ccc(OC)cc4)C24C(=O)Nc2ccccc24)C(=O)Nc2ccccc23)cc1 (centres unmarked)  IC50 (PIK3CD; enzyme activity, inhibitor, ADP detection): 0.687 µM
O=C(CC1(O)C(=O)Nc2cc(Cl)cc(Cl)c21)c1ccc2c(c1)OCO2 (centres unmarked)  IC50 (ppa; enzyme activity, inhibitor): > 100 µM
CC[C@H](C)[C@H](NC(=O)[C@H](CCCCN)NC(=O)[C@H](CCCCN)NC(=O)[C@H](CC(=O)O)NC(=O)[C@@H](N)CCC(=O)O)C(=O)N[C@H](C(=O)N[C@H](C(=O)N[C@@H](CCSC)C(=O)N1CCC[C@H]1C(=O)N[C@@H](CS)C(=O)N[C@@H](CCCCN)C(=O)N[C@@H](CS)C(=O)N[C@@H](C)C(=O)N1CCC[C@H]1C(=O)N[C@@H](CO)C(=O)N[C@@H](CCCNC(=N)N)C(=O)N[C@@H](CCC(N)=O)C(=O)N[C@@H](CC(C)C)C(=O)N[C@H](C(=O)N[C@@H](CCC(N)=O)C(=O)N[C@H](C(=O)N[C@@H](Cc1c[nH]c2ccccc12)C(=O)N[C@@H](CC(C)C)C(=O)N[C@@H](CCC(N)=O)C(=O)N[C@@H](C)C(=O)N[C@@H](CCCCN)C(=O)N[C@@H](CCC(=O)O)C(=O)O)C(C)C)C(C)C)[C@@H](C)CC)C(C)C  IC50 (MAD2L2 (Homo sapiens, UniProt Q9UI95, R124A); REV7 complex disruption, inhibitor, fluorescence polarization; with: FAM-RBM1 peptide): 1.5 ± 0.03 µM
COc1cccc(OC)c1-c1cc(C(=O)NC2(C(=O)O)C3CC4CC(C3)CC2C4)nn1-c1ccc(C(=O)NCCNC(=O)[C@H](CCCCNC(=O)[C@H](CC(C)C)NC(=O)C2OC2C(=O)O)NC(=O)CN2CCN(CC(=O)[O-])CCN(CC(=O)[O-])CCN(CC(=O)[O-])CC2)cc1C(C)C.[Lu+3] (mixture of isomers)  IC50 (NTSR1; ligand displacement, radioligand): 0.0093 µM
O=C1C(Cl)=C(NCCN2CCOCC2)C(=O)c2ncccc21  IC50 (EHMT1 (Homo sapiens, UniProt Q9H9B1); enzyme activity, inhibitor): > 100 µM
COc1ccccc1C1CCN(c2nc(C3(F)CC3)nc3cnc(N(C)CCO)cc23)CC1  IC50 (NTSR1; G protein activation, antagonist, BRET): 14.6 µM
Cc1cc(C)c(S(=O)(=O)N(CC(=O)O)c2ccc(Nc3ccnc(N4CCCC4)n3)cc2)c(C)c1  IC50 (Aurora kinase C (AURKC, Homo sapiens, UniProt Q9UQB9); enzyme activity, inhibitor): > 100 µM
COc1cccc2c(=O)c(CO)coc12  IC50 (NNMT; enzyme activity in cells, inhibitor): > 31.6 µM
OCC1OC(n2cnc3c(NCc4ccc(Br)s4)ncnc32)C(O)C1O (centres unmarked)  IC50 (CYP2C19; enzyme activity, inhibitor, fluorescence; pH 7.4): 35.4 µM
CNc1cc(Cl)c(C(N)=O)cn1  IC50 (NNMT; enzyme activity in cells, inhibitor): 3.16 µM
COc1cc2nc(C3(C)CC3)nc(N3CCC(c4ccccc4OC)CC3)c2cc1OC  IC50 (NTSR1; G protein activation, antagonist): 1.48 µM
CC(=O)C1=C(c2ccc(F)cc2)N(C(C)=O)n2cnnc2S1  IC50 (Uncharacterized protein; enzyme activity, inhibitor, coupled colorimetric; with: E. coli pyrophosphatase coupling): 41.4 µM
COc1ccc(C=NOCc2ccc3nc(-c4ccccc4)c(Nc4ccc(C(=O)O)cc4)n3c2)cc1OCC#N  inhibition (TDP1; enzyme activity, inhibitor; 100 µM, unpurified compound): -2.5%
O=C(CSc1nnc(-c2ccco2)c(-c2ccco2)n1)c1cccs1  IC50 (ppa; inhibitor, counter-screen, coupling enzyme alone): 37.8 µM
O=C(c1cccc(-c2cc(NCCO)ncn2)c1)N1CCCC1c1ccccc1 (centres unmarked)  IC50 (DNA dC->dU-editing enzyme APOBEC-3B C-terminal domain; deaminase activity, inhibitor, UDG-coupled deamination): 455 ± 52 µM
O=c1cc(-c2ccc(O)cc2)oc2c([C@@H]3OC[C@H](O)[C@H](O)[C@H]3O)c(O)c([C@@H]3O[C@H](CO)[C@@H](O)[C@H](O)[C@H]3O)c(O)c12  IC50 (CAMK2D (Homo sapiens, UniProt Q13557); binding, LanthaScreen Eu binding; 3 h): 0.93 µM
N[C@@H](Cc1c[nH]c2ccc(OCc3ccccc3-c3ccco3)cc12)C(=O)O  IC50 (SLC7A5; transporter uptake, inhibitor, radiometric): 32.3 µM
O=C1CC(c2ccccc2)N1S(=O)(=O)C1CCCC1 (centres unmarked)  IC50 (glpG; enzyme activity, inhibitor): 25 µM
CCC1(O)CCCN(C(=O)c2ccc(-c3ccccc3C(F)(F)F)cc2)C1 (centres unmarked)  IC50 (DNA dC->dU-editing enzyme APOBEC-3B (Homo sapiens, UniProt Q9UH17); ligand displacement, FP): 1100 µM
Cc1ccc(S(=O)(=O)N2C(=O)CC2c2ccccc2)cc1 (centres unmarked)  IC50 (glpG; substrate cleavage, inhibitor; NR698): > 100 µM
Fc1ccc(Nc2nc(NC3CCCCC3)c3ccccc3n2)cc1  IC50 (ADRB2; cAMP production, antagonist, GloSensor; with: isoproterenol 1 µM): > 50 µM
Cc1ccc(CN2C3(NC(c4ccc(C)cc4)C24C(=O)Nc2ccccc24)C(=O)Nc2ccccc23)cc1 (centres unmarked)  IC50 (PIK3CD; enzyme activity, inhibitor, ADP detection): 0.882 µM
Fc1ccc(Nc2nc(NC3CCCCC3)c3cc(C(F)(F)F)ccc3n2)cc1F  IC50 (ADRB2 (Homo sapiens, UniProt P07550, V126A); β-arrestin2 recruitment, antagonist, BRET; HEK293; mutant V126A, with: isoprenaline 1 µM): 0.251 µM
N[C@@H](Cc1c[nH]c2ccc(OCc3ccccc3-c3cccs3)cc12)C(=O)O  IC50 (SLC7A5; transporter uptake, inhibitor, radiometric): 12.1 µM
C=C(NC(=O)c1csc(-c2nc3c(cc2O)-c2nc(cs2)C(=O)NC(C(C)O)C(=O)NC(=C(C)OC)c2nc(cs2)C(=O)NC2c4nc(cs4)C(=O)NC(COC(=O)c4c5c6c(cccc6n4O)COC(=O)C(OC4CC(C)(O)C(N(C)C)C(C)O4)C2OC5)c2nc-3cs2)n1)C(N)=O (centres unmarked)  IC50 (CYP2C19; enzyme activity, inhibitor; human, liver microsomes; pH 7.4): > 50 µM
CC(C)(C)NC(=O)CC(NC(=O)CCc1ccccc1)C(=O)NCCNC(=O)c1cccc(-c2ccccc2)c1 (centres unmarked)  IC50 (Proteasome component C5/PSMB5 (Homo sapiens, UniProt P20618+P28074); enzyme activity, inhibitor; constitutive proteasome β5c): 0.326 µM
Cc1nn(-c2cccc(N)c2)c(=O)c2cnc(Nc3ccc(N4CCNCC4)cc3)nc12  IC50 (PIK3C2A (Homo sapiens, UniProt O00443); kinase activity, inhibitor, SelectScreen kinase profiling): > 10 µM
OC1CCCN(CCCNc2cc(-c3ccccc3)nc3ccnn23)C1 (centres unmarked)  IC50 (DNA dC->dU-editing enzyme APOBEC-3B C-terminal domain; deaminase activity, inhibitor, UDG-coupled deamination): 112 ± 6 µM
COc1ccc(Nc2cc(NC3CC3)n3ncc(C#N)c3n2)cc1  IC50 (SGK3 (Homo sapiens, UniProt Q96BR1); inhibitor): > 10 µM
CN(C)c1nc(NCc2c(F)cccc2C(F)(F)F)c(/N=N/c2ccc(Cl)cc2)c(N(C)C)n1  IC50 (OfChi-h; enzyme activity, inhibitor, fluorescence): 0.27 µM
O=C(CCNC(=O)CNC(=O)CC(c1ccccc1)(c1ccccc1)c1ccccc1)NC[C@@H]1CCCN(C(=O)c2ccc(F)cc2)C1  IC50 (CHRM3; ligand displacement, radioligand; cell membranes): > 30 µM
CC(C)(C)n1ncc2c(=O)n(Cc3cccc(F)c3)c(NCc3ccc(F)cn3)nc21  IC50 (PDE4D; enzyme activity, inhibitor): 0.325 µM
Brc1cccc(Nc2nc(NC3CCCCC3)c3ccccc3n2)c1  IC50 (ADRB2; β-arrestin recruitment, antagonist): 2.5 µM
COc1ccc(C(=O)CC2(O)C(=O)Nc3ccc(C)cc32)cc1OC (centres unmarked)  IC50 (Uncharacterized protein; inhibitor, coupled colorimetric; Trypanosoma brucei): > 100 µM
O=C(/C=C/c1ccc(O)c2oc(-c3ccc(O)c(O)c3)cc12)O[C@H](Cc1ccc(O)c(O)c1)C(=O)O  IC50 (CHRM3; DMR desensitization; HT-29; with: acetylcholine): 78 µM
O=C(O)Cc1cc2c(cc1C(=O)c1ccccc1Br)OCO2  IC50 (Gria1; ion current, patch clamp): 4.68 µM
Cc1cnc(Nc2ccc3c(c2)CCN(C(=O)/C=C/C(=O)c2ccc(Cl)cc2)C3)nc1-c1cnn(C(C)C)c1  IC50 (JAK1; enzyme activity, inhibitor, ADP detection): > 0.03 µM
Nc1ccc2c(NC3CCCCC3)nc(Nc3ccc(F)c(F)c3)nc2c1  IC50 (ADRB2; cAMP production, antagonist, GloSensor; with: isoproterenol 1 µM): 7.6 ± 2.5 µM
O=C(O)c1ccc(Nc2c(-c3ccc(CON=Cc4c(-c5cccc(F)c5)nc5sccn45)cc3)nc3cc(-c4ccccc4)ccn23)cc1 (mixture of isomers)  inhibition (TDP1; enzyme activity, inhibitor; 100 µM, unpurified compound): 30.9%
CN(C)c1nc(NCc2cccc(-c3ccccc3)c2)c(/N=N/c2ccc(Cl)cc2)c(N(C)C)n1  IC50 (OfChi-h; enzyme activity, inhibitor, fluorescence): 0.12 µM
COc1ccnc(C)c1C  IC50 (NNMT; enzyme activity in cells, inhibitor): > 31.6 µM
COc1ccc2c(c1OC)C(=O)N(c1ccc(OC(F)(F)F)cc1)C2  IC50 (Uncharacterized protein; inhibitor, coupled colorimetric; Trypanosoma brucei): > 100 µM
COC(=O)Cc1cc2c(cc1C(=O)c1ccccc1)OCO2  IC50 (Gria1; ion current, patch clamp): 6.17 µM
CC[C@@H]1CN(C(=O)NCC(F)(F)F)C[C@@H]1Nc1c(C(F)(F)F)cnc2[nH]ccc12  IC50 (JAK1; enzyme activity, inhibitor, ADP detection): 0.00503 µM

Some of these lines once more:
COC(=O)Cc1cc2c(cc1C(=O)c1cccc(I)c1)OCO2  IC50 (Gria1; ion current, patch clamp): 5.9 µM
COc1ccc(C(=O)CC2(O)C(=O)Nc3ccc(C)cc32)cc1OC (centres unmarked)  IC50 (Uncharacterized protein; inhibitor, coupled colorimetric; Trypanosoma brucei): > 100 µM
COc1ccc(CN2C3(NC(c4ccc(OC)cc4)C24C(=O)Nc2ccccc24)C(=O)Nc2ccccc23)cc1 (centres unmarked)  IC50 (PIK3CD; enzyme activity, inhibitor, ADP detection): 0.687 µM
O=C(c1cccc(-c2cc(NCCO)ncn2)c1)N1CCCC1c1ccccc1 (centres unmarked)  IC50 (DNA dC->dU-editing enzyme APOBEC-3B C-terminal domain; deaminase activity, inhibitor, UDG-coupled deamination): 455 ± 52 µM
